Measurements from different studies.
Parts stem from different laboratories: compare values within a part only. Values joined by “and” are separate records of one study, mostly repeats; a detail may differ.
UniProt Q9UM73, sequence (whole entry, unmodified, looked up): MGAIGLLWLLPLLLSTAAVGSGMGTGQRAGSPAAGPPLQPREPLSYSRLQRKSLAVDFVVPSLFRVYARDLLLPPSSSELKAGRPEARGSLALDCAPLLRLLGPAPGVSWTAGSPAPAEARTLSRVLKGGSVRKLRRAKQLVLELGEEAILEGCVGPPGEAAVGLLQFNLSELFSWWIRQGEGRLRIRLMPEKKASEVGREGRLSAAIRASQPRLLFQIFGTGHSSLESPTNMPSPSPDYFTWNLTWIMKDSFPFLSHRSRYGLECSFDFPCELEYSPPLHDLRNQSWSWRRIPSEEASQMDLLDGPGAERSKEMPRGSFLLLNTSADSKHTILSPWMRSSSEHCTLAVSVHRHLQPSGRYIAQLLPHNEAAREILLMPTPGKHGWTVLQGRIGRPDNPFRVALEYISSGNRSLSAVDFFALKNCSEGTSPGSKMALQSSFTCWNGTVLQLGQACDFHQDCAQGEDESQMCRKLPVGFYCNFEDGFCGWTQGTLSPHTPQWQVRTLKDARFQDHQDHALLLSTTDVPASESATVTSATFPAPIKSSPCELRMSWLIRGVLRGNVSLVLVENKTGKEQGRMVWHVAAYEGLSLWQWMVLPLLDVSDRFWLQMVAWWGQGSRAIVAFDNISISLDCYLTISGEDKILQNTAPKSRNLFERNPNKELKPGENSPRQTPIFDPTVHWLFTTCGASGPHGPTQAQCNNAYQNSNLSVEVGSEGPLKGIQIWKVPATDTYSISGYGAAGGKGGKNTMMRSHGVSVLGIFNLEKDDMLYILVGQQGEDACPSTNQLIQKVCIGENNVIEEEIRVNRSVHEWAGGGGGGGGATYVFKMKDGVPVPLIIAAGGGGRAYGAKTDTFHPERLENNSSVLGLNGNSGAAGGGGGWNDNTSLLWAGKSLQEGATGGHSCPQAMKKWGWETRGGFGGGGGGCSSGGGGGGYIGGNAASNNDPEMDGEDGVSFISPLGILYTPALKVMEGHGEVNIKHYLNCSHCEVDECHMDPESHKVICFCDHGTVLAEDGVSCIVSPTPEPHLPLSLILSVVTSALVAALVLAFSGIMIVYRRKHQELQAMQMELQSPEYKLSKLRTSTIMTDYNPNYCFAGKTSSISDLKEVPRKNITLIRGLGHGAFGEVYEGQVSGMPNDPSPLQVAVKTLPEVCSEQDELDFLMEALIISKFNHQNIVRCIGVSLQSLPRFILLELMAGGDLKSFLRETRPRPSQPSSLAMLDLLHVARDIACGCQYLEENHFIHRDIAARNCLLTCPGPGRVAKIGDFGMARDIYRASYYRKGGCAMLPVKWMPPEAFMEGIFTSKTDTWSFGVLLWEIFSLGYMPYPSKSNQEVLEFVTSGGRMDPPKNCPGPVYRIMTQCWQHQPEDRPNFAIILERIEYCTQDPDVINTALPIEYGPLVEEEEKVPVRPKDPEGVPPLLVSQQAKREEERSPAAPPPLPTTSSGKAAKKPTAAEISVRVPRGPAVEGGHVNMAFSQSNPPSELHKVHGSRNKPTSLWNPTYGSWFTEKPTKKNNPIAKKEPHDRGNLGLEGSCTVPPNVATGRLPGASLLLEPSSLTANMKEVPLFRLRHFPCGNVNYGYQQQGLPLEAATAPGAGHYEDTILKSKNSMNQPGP
UniProt P07332, sequence (whole entry, looked up): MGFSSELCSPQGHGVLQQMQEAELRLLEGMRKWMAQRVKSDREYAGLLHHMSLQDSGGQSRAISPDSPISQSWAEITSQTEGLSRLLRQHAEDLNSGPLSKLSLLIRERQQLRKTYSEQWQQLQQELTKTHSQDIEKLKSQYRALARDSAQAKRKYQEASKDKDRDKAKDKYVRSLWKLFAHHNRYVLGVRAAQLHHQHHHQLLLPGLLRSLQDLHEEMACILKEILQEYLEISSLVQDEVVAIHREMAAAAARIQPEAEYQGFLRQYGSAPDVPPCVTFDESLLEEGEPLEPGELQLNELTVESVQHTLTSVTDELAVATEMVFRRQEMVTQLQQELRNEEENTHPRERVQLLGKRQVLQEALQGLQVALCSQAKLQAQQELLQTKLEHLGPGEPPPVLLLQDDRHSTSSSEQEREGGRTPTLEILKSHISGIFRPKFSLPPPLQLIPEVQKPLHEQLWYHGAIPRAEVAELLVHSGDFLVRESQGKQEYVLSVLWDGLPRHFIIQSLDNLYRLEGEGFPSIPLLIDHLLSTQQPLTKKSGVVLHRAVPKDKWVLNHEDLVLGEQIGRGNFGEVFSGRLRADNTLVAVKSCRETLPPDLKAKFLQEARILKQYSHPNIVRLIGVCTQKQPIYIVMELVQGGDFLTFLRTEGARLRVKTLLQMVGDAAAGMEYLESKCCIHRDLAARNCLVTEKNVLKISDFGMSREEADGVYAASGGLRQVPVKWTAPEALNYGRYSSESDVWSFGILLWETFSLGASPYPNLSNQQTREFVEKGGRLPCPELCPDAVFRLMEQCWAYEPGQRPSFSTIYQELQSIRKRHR
UniProt P53667, sequence (whole entry, looked up): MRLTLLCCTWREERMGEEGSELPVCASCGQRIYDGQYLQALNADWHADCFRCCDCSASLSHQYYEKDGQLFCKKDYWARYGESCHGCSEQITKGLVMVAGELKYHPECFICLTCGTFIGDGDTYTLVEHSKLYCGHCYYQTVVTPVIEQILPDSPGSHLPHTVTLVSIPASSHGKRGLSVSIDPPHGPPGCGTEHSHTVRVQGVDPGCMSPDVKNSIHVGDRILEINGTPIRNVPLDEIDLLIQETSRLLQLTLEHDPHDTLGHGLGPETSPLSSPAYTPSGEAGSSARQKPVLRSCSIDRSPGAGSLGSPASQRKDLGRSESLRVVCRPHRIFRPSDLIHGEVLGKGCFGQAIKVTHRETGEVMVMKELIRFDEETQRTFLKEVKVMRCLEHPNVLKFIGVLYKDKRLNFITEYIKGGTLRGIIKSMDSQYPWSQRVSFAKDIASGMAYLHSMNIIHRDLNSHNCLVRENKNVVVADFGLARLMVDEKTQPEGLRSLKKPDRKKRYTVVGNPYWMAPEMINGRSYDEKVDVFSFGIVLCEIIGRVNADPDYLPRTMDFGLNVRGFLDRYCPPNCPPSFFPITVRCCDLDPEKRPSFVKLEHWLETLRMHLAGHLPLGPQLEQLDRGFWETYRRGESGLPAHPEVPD
UniProt Q99558, sequence (whole entry, looked up): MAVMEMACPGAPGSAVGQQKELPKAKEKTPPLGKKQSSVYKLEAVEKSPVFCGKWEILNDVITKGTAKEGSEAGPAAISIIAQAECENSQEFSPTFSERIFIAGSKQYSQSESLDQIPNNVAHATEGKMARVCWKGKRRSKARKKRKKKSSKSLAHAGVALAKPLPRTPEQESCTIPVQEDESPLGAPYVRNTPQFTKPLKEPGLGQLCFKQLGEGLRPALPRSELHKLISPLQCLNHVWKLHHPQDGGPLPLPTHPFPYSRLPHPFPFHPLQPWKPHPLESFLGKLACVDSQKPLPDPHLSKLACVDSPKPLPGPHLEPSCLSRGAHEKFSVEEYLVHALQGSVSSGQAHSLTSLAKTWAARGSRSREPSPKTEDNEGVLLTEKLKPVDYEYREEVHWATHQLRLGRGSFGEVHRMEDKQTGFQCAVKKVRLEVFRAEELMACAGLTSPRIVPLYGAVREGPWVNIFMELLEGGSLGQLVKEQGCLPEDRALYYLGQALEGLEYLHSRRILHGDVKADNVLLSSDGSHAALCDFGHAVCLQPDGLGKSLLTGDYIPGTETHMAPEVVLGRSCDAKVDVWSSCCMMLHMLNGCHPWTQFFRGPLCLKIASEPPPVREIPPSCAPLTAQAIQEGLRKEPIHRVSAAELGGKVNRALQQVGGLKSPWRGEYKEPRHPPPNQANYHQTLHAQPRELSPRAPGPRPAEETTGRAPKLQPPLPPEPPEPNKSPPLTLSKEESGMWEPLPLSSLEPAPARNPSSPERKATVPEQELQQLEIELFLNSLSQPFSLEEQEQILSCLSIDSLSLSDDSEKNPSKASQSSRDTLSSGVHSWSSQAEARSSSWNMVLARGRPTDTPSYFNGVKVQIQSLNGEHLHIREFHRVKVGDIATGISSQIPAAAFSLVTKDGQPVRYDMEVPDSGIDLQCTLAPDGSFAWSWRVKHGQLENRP

Series 1 — cell line: A-375; tested at: 100 µM; time: 18 h
SMILES	viability
Cc1cc2nc3c(=O)[nH]c(=O)nc-3n(C[C@H](O)[C@H](O)[C@H](O)CO)c2cc1C	92.5%
CCN(CCCc1ccccc1)CCCc1ccccc1	47.3%
O=C(O)[C@@H](S)[C@@H](S)C(=O)O	99.9%
Cc1cccc(C)c1OCC(C)N (stereo not drawn)	90%
Nc1ccn([C@@H]2O[C@H](CO)[C@@H](O)[C@@H]2O)c(=O)n1	77.8%
NC(=O)c1cn(Cc2c(F)cccc2F)nn1	96%
OCCOc1ccc(/C(=C(/CCCl)c2ccccc2)c2ccccc2)cc1	8.3%
CCCCN1CCCC[C@H]1C(=O)Nc1c(C)cccc1C	84.1% and 83.9%

Series 2 — observed: cell-free assay; technique: competition with immobilised ligand; tested at: 1 µM
Structure (SMILES): CC(=O)C1=C(C)N(c2cccc(C(F)(F)F)c2)C(=O)N[C@@H]1c1ccc(C#N)nc1
target	remaining binding
EPHA2 (Homo sapiens, UniProt P29317)	100%
CDK7 (Homo sapiens, UniProt P50613)	90.6%
ANKK1 (Homo sapiens, UniProt Q8NFD2)	100%
CDK5 (Homo sapiens, UniProt Q00535)	100%
Tyrosine-protein kinase JAK1, JH2 (JAK1, Homo sapiens, UniProt P23458)	100%
GRK2 (Homo sapiens, UniProt P25098)	89%
SYK (Homo sapiens, UniProt P43405)	100%
MAP4K1 (Homo sapiens, UniProt Q92918)	100%
PIK3CB (Homo sapiens, UniProt P42338)	100%
TYRO3 (Homo sapiens, UniProt Q06418)	66.9%
STK24 (Homo sapiens, UniProt Q9Y6E0)	95.4%
LIM domain kinase 1 (LIMK1, Homo sapiens, UniProt P53667)	70.2%
PNCK (Homo sapiens, UniProt Q6P2M8)	92.4%
PIP5K1A (Homo sapiens, UniProt Q99755)	100%
ALK (Homo sapiens, UniProt Q9UM73)	100%
STK35 (Homo sapiens, UniProt Q8TDR2)	85.9%
PTK2B (Homo sapiens, UniProt Q14289)	100%
FLT3 (Homo sapiens, UniProt P36888, R834Q)	83.6%
FES (Homo sapiens, UniProt P07332)	84.1%
LRRK2 (Homo sapiens, UniProt Q5S007, G2019S)	100%
MAP3K7 (Homo sapiens, UniProt O43318)	100%
DAPK1 (Homo sapiens, UniProt P53355)	93.8%
MAP4K3 (Homo sapiens, UniProt Q8IVH8)	83.5%
BRAF (Homo sapiens, UniProt P15056)	78.5%
MATK (Homo sapiens, UniProt P42679)	100%

Series 3 — observed: enzyme activity; mode: inhibitor; tested at: 0.5 µM; baseline: control
Target: Ephrin type-A receptor 5 (EPHA5, Homo sapiens, UniProt P54756)
UniProt P54756, sequence (whole entry, looked up): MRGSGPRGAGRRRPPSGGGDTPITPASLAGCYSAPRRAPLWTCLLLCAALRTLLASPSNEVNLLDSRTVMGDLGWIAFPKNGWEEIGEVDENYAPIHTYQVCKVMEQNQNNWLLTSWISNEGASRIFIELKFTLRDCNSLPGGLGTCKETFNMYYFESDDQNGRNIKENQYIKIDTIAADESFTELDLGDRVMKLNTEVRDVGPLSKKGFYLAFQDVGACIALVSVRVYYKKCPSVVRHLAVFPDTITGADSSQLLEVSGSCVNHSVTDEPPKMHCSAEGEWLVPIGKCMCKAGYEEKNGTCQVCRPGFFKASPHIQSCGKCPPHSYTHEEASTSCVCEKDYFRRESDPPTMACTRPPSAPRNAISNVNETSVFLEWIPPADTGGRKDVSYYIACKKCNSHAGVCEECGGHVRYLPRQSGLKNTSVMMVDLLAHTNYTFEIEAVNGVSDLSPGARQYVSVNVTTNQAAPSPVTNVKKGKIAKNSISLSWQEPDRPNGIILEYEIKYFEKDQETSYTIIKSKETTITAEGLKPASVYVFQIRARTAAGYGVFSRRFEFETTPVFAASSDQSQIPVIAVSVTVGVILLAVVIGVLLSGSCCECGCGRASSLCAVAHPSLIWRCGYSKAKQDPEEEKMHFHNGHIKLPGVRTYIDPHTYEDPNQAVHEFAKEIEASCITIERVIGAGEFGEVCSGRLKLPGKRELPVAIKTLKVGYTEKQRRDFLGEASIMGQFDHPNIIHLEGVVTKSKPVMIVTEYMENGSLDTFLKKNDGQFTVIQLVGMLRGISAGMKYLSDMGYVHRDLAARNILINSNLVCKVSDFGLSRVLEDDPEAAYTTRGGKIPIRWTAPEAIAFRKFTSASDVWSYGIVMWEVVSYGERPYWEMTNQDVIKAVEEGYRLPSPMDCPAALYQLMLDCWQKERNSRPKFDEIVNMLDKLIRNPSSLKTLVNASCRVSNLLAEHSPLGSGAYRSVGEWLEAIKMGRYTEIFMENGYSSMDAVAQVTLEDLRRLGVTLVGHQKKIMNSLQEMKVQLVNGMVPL
SMILES	remaining activity [%]
c1ccc(-c2cnc(Nc3ccc(OCCN4CCCC4)cc3)s2)cc1	97
COc1cc2ncnc(Nc3ccc(O)c(Br)c3)c2cc1OC	72.3
N#C/C(=C\c1ccc(O)c(O)c1)C(=O)NCc1ccccc1	103
Cn1nc2c3c(cccc31)C(=O)c1ccccc1-2	126
N#Cc1c(NC(=O)c2cccc3ccccc23)sc2c1CCCC2	99.6
O=C(Nc1cccc(Nc2nccc(Nc3cccc(C(F)(F)F)c3)n2)c1)C1CC1	96.2
c1ccc(-c2[nH]ncc2-c2ccnc3ccccc23)nc1	94.9
Ic1cccc(CSc2nnc(-c3ccncc3)o2)c1	100
COc1cc2c(cc1OC)-c1[nH]nc(Nc3cccc(F)c3)c1C2	93.4
CN(C)C[C@H]1CCn2c(c(C3=C(c4cn(C)c5ccccc45)C(=O)NC3=O)c3ccccc32)C1	95.1
C[C@@H]1CCN(C(=O)CC#N)C[C@@H]1N(C)c1ncnc2[nH]ccc12	99.9
Cc1cn(-c2cc(NC(=O)c3ccc(C)c(Nc4nccc(-c5cccnc5)n4)c3)cc(C(F)(F)F)c2)cn1	22.6
CCN(CC)CCNC(=O)c1c(C)[nH]c(/C=C2\C(=O)Nc3ccc(Cl)cc32)c1C	90.4
Cc1nc2cc3nc(-c4cccs4)cnc3cc2n1C	105
O=C(NC(NC(=S)Nc1ccc(F)c([N+](=O)[O-])c1)C(Cl)(Cl)Cl)C(c1ccccc1)c1ccccc1 (stereo not drawn)	107
CCN(CC)CCNC(=O)c1c(C)[nH]c(/C=C2\C(=O)Nc3ccc(F)cc32)c1C	87.6
Cc1cc2ncc(-c3ccccc3)nc2cc1C	96.1
COc1cc2ncnc(Nc3cccc(Cl)c3)c2cc1OC	68.3
CN([C@@H](Cc1ccc(OS(=O)(=O)c2cccc3cnccc23)cc1)C(=O)N1CCN(c2ccccc2)CC1)S(=O)(=O)c1cccc2cnccc12	102
O=C1C(Cl)=C(N2C(=O)CCC2=O)C(=O)c2ccccc21	113
O=c1cc(-c2cccc3c2Sc2ccccc2S3)oc(N2CCOCC2)c1	114
CCOc1nc(NC(=O)Cc2cc(OC)ccc2OC)cc(N)c1C#N	112
O=C1c2ccccc2-c2n[nH]c3cccc1c23	102
Nc1cccc(-c2cc3c(Oc4cccc(O)c4)ncnc3[nH]2)c1	41.7
CCN(CC)C(=O)c1ccc(Nc2nc(OCC3CCCCC3)c3[nH]cnc3n2)cc1	95

Series 4 — mode: inhibitor; tested at: 1 µM
Compound: C=CC(=O)N1CCC[C@@H](n2nc(-c3ccc(Oc4ccccc4)cc3)c3c(N)ncnc32)C1
target	test	inhibition
CHEK2 (Homo sapiens, UniProt O96017)	enzyme activity	21%
FES (Homo sapiens, UniProt P07332)	enzyme activity	1%
NEK9 (Homo sapiens, UniProt Q8TD19)	enzyme activity	8%
CDK8 (Homo sapiens, UniProt P49336)	–	0%
MAPK8 (Homo sapiens, UniProt P45983)	enzyme activity	6%
TNK2 (Homo sapiens, UniProt Q07912)	enzyme activity	76%
Ribosomal protein S6 kinase alpha-4, N-terminal kinase domain (RPS6KA4, Homo sapiens, UniProt O75676)	–	8%
MAP3K14 (Homo sapiens, UniProt Q99558)	enzyme activity	54%
GSK3A (Homo sapiens, UniProt P49840)	–	6%
ALK (Homo sapiens, UniProt Q9UM73, L1196M)	–	0%
BRSK1 (Homo sapiens, UniProt Q8TDC3)	enzyme activity	28%

A few entries again (series 3):
SMILES	remaining activity [%]
O=C1C(Cl)=C(N2C(=O)CCC2=O)C(=O)c2ccccc21	113
O=C(Nc1cccc(Nc2nccc(Nc3cccc(C(F)(F)F)c3)n2)c1)C1CC1	96.2
CCN(CC)C(=O)c1ccc(Nc2nc(OCC3CCCCC3)c3[nH]cnc3n2)cc1	95
c1ccc(-c2[nH]ncc2-c2ccnc3ccccc23)nc1	94.9
